Measured values collected from several papers.
Each line is one published result; not all experiments were run side by side.
Effect on: cell growth or viability

SMILES | cell line | test | conditions | quantity | value
C=C(COCc1ccccc1)[C@@H]1CC[C@@H](C)C[C@H]1OCc1ccccc1 | A2780 | MTT | 30 µM, 72 h | inhibition | 29.7%
O=C(C=Cc1ccccc1)Nc1ccc(Oc2nnc(-c3ccc(Cl)cc3)c3ccccc23)cc1 | MCF7 | MTT | 0.625 µM | cell death | 5.31%
Cc1n[nH]c2ccc3nc(-c4ccc(C(=O)NCCN(C)C)cc4)c4c(c3c12)CCCCC4 | Kasumi 1 | – | 72 h | GI50 | 0.254 µM
Cc1nc2c(c(O)c1Cl)-c1ccc(Oc3cccc(C(F)(F)F)c3)cc1C2=O | HEK293 | – | – | IC50 | > 10 µM
O=C(Nc1ccc(Oc2nnc(-c3ccc(Cl)cc3)c3ccccc23)cc1)c1ccccc1 | MCF7 | MTT | 78 nM, 24 h | viability | 86.5%
Cc1cc(C)n(C(=S)[S][Au][PH](CCCCCC[PH]([Au][S]C(=S)n2nc(C)cc2C)(c2ccccc2)c2ccccc2)(c2ccccc2)c2ccccc2)n1 | SR | – | – | GI50 | 0.0341 µM
C=CCOc1ccc(-c2c(C)[nH]c(C)c(Br)c2=O)cc1 | HEK293 | – | – | IC50 | > 10 µM
CC(=NNC(=S)Nc1ccccc1)c1ccc(Nc2nnc(-c3ccc(Cl)cc3)c3ccccc23)cc1 | MCF7 | MTT | 2.5 µM | cell death | 87.8%
CCCOc1ccc2c(C)c(CC)c(=O)oc2c1C | PC-3 | MTT | 500 µg/mL | viability | 9.47%
OCc1ccc(N(Cc2ccc(F)cc2)C2CCC2)cc1Cl | RBE | ATP luminescence | 46 µM, 72 h | inhibition | 84%
Cc1[nH]c(C)c(-c2ccc(CCc3ccc(N)cc3)cc2)c(=O)c1Cl | HEK293 | – | – | IC50 | > 10 µM
Cc1ccc(C(CS(=O)(=O)c2ccccc2)=NNC2=NC(=O)C(=NNc3ccc([N+](=O)[O-])cc3)S2)cc1 | WM 266-4 | MTT | 0.4 µM, 48 h | viability | 57.4%
C=CCOc1ccc2c(C)c(CC)c(=O)oc2c1C | PC-3 | MTT | 1000 µg/mL | viability | 6.94%
CC(=NNC(=O)c1ccccc1Cl)c1ccc(Nc2nnc(-c3ccc(Cl)cc3)c3ccccc23)cc1 | MCF7 | MTT | 2.5 µM, 24 h | viability | 23%
CNc1ncc2c(/C=C/C(=O)N3CCOCC3)nn(CC3CCCC3)c2n1 | FLO-1 | resazurin | 5 days | EC50 | > 30 µM
C[C@@H]1CC[C@@H]([C@](O)(CNCc2ccc(F)cc2)COCc2ccc(F)cc2)[C@H](OCc2ccc(F)cc2)C1 | A2780 | MTT | 10 µM, 72 h | inhibition | 93.8%
C[C@]1(c2nc3c(C(N)=O)cccc3[nH]2)CCCN1 | MB002 | – | 7 days | IC50 | > 10 µM
CNc1ncc2c(/C=C/C(=O)N3CCC(COC)CC3)nn(Cc3cccc(C)c3)c2n1 | FLO-1 | resazurin | 5 days | EC50 | > 30 µM
CC(=NNC(N)=S)c1ccc(Nc2nnc(-c3ccc(Cl)cc3)c3ccccc23)cc1 | MCF7 | MTT | 10 µM, 24 h | viability | 9.65%
CC(=O)N1CCC(Nc2cc(C(=O)NC[C@H](O)CN3CCc4ccccc4C3)ncn2)CC1 | MB002 | – | 7 days | IC50 | 0.0984 µM
O=C(Nc1ccc(Oc2nnc(-c3ccc(Cl)cc3)c3ccccc23)cc1)c1cccc([N+](=O)[O-])c1 | MCF7 | MTT | 10 µM, 24 h | viability | 7.97%
Cc1c(Cc2ccccc2)c(=O)oc2c(C)c(OCC(=O)NN=Cc3ccc([N+](=O)[O-])cc3)ccc12 | PC-3 | MTT | 62.5 µg/mL | viability | 16.8%
CC(=O)Nc1ccc(Oc2nnc(-c3ccc(Cl)cc3)c3ccccc23)cc1 | MCF7 | MTT | 0.156 µM, 24 h | viability | 27.3%
CCCCCCCc1c(C)[nH]c2cc(OC)ccc2c1=O | HEK293 | – | – | IC50 | > 10 µM

Some of these lines once more:
SMILES | cell line | test | conditions | quantity | value
Cc1n[nH]c2ccc3nc(-c4ccc(C(=O)NCCN(C)C)cc4)c4c(c3c12)CCCCC4 | Kasumi 1 | – | 72 h | GI50 | 0.254 µM
Cc1nc2c(c(O)c1Cl)-c1ccc(Oc3cccc(C(F)(F)F)c3)cc1C2=O | HEK293 | – | – | IC50 | > 10 µM
